Experimental data pooled from the literature.
Values joined by “and” are separate records of one study, mostly repeats; a detail may differ. ± marks the error that the study gave.
ACHE: Acetylcholinesterase (ACHE, Homo sapiens, UniProt P22303)
OPRM1 with beta-arrestin-2: Mu-type opioid receptor, with beta-arrestin-2 (OPRM1, Homo sapiens, UniProt P35372)
inhA: Enoyl-[acyl-carrier-protein] reductase [NADH] (inhA, Mycobacterium tuberculosis, UniProt P9WGR1)
cyp121: Mycocyclosin synthase (cyp121, Mycobacterium tuberculosis, UniProt P9WPP7)
OPRM1: Mu-type opioid receptor (OPRM1, Homo sapiens, UniProt P35372)

Amino acid sequences for entries named in this document (tags omitted). Residues count along the entry.
UniProt P22303, whole entry, looked up: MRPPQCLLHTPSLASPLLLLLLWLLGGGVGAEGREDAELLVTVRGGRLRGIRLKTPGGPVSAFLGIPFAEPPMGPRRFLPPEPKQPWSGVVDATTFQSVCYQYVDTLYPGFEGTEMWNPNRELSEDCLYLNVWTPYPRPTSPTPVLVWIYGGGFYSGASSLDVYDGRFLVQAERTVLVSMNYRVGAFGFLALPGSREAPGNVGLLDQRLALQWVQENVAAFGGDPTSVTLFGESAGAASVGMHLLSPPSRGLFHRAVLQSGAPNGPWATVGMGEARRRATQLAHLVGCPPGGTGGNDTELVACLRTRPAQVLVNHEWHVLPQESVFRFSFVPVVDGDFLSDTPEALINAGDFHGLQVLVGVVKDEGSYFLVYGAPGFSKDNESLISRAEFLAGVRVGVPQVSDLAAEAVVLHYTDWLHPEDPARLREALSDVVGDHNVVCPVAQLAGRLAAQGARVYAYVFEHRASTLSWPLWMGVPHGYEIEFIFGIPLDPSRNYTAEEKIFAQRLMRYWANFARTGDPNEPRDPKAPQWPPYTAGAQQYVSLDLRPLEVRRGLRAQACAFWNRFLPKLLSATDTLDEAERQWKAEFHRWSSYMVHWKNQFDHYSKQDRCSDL
UniProt P35372, whole entry: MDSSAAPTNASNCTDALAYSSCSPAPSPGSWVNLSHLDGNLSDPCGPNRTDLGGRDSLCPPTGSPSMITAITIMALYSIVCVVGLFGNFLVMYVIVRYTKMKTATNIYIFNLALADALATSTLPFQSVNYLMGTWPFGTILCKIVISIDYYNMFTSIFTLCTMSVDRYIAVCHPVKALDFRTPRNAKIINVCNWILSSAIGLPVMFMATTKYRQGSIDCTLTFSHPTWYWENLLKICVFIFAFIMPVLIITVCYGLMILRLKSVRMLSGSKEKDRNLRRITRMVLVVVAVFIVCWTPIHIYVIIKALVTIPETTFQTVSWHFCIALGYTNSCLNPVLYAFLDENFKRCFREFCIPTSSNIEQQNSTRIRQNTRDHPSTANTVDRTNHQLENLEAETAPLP
UniProt P9WGR1, whole entry: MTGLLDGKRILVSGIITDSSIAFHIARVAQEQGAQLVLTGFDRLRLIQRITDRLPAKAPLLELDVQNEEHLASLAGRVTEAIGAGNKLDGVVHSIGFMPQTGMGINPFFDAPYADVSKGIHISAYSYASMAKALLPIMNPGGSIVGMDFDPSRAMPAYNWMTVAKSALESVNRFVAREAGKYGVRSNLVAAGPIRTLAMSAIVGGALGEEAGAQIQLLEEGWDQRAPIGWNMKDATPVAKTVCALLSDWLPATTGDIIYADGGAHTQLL
UniProt Q9GZZ6, whole entry, looked up: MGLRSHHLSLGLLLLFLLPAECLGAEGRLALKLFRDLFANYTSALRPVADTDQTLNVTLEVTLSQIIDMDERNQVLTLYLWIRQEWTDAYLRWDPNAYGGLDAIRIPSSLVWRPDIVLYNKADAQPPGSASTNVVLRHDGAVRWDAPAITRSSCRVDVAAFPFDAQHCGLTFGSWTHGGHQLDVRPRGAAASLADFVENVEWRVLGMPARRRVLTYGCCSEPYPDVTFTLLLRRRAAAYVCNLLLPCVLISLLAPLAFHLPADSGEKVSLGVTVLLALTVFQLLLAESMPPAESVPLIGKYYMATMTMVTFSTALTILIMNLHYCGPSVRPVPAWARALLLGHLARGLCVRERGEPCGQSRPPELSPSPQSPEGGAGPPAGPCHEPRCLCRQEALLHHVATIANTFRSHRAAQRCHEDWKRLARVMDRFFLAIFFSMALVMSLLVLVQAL
UniProt Q9UGM1, whole entry, looked up: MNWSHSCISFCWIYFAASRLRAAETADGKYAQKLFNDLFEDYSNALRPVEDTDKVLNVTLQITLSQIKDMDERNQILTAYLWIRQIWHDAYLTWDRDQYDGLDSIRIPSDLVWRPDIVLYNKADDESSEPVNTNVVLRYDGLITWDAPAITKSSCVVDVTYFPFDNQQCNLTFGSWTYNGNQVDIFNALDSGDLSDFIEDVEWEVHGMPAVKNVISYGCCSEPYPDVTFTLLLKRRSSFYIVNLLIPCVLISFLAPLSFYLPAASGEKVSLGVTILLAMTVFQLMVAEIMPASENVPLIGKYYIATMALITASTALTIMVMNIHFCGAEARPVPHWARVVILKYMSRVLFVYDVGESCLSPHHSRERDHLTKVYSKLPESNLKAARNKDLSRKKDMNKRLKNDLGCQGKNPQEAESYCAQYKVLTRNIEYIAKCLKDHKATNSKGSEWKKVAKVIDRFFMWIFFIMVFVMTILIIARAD
UniProt O15393, whole entry S251D/R252D/Q253D/S254D/R255K, looked up: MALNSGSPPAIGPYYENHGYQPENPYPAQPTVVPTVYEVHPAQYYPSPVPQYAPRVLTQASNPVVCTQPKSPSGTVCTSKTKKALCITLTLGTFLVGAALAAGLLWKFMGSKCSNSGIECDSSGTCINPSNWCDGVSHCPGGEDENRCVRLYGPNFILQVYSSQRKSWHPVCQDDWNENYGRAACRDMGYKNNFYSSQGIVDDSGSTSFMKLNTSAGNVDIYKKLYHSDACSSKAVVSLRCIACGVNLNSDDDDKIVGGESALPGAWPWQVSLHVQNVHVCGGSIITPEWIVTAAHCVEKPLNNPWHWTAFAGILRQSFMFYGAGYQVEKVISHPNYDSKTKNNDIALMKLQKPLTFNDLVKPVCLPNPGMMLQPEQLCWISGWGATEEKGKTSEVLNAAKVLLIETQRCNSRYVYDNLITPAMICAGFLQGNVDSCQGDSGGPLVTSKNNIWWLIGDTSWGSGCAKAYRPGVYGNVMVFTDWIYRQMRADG
UniProt O42275, whole entry, looked up: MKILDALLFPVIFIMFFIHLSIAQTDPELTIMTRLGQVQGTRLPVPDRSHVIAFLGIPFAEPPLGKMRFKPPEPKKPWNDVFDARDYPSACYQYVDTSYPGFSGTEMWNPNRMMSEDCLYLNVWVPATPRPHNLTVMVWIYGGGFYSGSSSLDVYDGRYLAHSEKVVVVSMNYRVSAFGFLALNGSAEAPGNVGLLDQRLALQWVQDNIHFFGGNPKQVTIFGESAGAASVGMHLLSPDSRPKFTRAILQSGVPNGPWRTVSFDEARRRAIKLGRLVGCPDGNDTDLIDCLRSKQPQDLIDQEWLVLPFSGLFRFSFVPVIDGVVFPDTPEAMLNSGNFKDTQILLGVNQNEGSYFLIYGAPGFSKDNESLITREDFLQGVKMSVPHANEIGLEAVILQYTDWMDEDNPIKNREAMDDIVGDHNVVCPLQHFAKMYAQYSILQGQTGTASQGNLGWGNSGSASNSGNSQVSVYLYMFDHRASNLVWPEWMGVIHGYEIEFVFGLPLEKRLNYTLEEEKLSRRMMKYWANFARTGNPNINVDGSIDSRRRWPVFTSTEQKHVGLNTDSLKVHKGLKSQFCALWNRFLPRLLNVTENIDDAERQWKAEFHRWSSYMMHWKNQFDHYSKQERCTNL
UniProt P11229, whole entry: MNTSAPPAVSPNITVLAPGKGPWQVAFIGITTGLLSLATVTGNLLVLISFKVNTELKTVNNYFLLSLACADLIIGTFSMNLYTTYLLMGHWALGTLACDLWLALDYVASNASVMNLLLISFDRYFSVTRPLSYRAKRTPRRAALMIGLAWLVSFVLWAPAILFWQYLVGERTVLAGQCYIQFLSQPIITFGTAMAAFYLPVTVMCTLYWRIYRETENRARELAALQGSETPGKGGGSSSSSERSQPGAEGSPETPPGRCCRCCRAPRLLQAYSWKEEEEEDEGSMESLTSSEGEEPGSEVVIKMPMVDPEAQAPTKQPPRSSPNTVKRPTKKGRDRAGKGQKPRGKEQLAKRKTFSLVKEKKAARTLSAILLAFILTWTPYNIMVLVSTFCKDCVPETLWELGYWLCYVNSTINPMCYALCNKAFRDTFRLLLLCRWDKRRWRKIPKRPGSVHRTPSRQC
UniProt P9WFX1, whole entry: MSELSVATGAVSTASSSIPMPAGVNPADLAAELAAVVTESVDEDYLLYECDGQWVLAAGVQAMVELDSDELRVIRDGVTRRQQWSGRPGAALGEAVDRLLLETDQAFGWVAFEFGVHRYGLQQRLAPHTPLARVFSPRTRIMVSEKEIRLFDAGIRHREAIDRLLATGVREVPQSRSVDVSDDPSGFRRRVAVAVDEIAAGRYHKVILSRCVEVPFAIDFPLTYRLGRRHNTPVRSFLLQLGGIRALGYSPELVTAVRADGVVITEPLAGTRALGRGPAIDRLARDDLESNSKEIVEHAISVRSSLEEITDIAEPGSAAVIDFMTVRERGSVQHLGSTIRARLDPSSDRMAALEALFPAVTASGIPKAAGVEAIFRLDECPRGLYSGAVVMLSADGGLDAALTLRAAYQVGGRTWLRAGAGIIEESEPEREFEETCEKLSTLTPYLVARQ
UniProt P06730, whole entry: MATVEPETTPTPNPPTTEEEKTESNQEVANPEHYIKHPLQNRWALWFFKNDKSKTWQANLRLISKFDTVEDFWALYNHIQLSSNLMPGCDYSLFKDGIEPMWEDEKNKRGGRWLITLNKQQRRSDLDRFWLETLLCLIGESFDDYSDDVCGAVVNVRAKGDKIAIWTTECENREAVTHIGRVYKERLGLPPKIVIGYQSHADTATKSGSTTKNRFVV
UniProt R4P353, 1-724 S562A limits assumed: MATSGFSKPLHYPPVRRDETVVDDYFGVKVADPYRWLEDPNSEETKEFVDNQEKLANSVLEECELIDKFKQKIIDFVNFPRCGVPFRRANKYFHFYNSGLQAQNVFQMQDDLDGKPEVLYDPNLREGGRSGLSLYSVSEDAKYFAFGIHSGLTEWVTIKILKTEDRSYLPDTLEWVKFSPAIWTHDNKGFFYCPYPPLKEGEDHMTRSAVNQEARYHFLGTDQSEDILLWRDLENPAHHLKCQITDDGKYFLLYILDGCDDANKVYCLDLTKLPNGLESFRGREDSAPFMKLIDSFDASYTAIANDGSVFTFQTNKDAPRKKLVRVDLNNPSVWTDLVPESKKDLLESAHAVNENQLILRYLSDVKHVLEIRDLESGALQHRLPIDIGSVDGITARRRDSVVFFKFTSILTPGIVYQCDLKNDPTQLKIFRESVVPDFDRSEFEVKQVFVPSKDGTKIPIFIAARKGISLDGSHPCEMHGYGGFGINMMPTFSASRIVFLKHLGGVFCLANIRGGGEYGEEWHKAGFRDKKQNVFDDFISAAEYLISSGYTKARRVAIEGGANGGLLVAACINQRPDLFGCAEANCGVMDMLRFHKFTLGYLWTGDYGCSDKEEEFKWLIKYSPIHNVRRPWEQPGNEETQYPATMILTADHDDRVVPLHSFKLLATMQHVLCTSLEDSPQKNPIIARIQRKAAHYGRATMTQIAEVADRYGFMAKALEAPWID
UniProt O33336, whole entry: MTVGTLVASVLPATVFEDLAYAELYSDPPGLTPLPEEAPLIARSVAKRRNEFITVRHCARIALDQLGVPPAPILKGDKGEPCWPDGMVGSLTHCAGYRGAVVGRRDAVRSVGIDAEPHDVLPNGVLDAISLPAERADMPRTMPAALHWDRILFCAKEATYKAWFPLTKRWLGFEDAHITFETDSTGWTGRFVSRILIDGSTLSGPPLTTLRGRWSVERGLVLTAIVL
UniProt P05091, 18-517 limits assumed: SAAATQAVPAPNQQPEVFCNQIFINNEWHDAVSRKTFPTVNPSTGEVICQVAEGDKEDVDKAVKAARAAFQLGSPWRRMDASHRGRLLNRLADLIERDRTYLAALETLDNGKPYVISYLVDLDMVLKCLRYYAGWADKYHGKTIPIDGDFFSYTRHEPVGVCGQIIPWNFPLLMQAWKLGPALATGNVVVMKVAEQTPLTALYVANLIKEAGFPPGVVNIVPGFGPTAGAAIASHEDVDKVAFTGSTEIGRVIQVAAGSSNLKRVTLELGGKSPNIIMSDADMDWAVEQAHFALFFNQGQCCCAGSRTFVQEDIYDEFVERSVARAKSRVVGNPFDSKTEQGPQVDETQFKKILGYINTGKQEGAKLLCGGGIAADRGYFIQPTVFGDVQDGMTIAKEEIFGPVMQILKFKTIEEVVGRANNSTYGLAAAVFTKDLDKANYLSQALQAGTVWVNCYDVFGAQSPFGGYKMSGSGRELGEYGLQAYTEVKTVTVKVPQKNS
UniProt P02554, whole entry: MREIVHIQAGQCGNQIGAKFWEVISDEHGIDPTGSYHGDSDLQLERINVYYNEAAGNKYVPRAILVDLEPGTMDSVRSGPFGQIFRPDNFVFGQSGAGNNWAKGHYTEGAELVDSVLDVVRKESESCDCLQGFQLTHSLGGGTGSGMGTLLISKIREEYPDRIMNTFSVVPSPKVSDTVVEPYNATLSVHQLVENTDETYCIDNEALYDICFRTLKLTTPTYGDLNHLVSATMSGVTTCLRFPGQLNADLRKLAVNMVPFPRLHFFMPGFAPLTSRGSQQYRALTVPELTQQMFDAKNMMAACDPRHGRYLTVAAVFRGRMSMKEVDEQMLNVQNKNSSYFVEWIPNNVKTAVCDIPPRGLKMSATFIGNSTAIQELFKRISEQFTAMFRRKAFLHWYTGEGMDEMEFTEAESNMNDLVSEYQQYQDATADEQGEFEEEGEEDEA
UniProt P0C6Y4, 1686-1922 N1686S/I1722L/T1724W limits assumed: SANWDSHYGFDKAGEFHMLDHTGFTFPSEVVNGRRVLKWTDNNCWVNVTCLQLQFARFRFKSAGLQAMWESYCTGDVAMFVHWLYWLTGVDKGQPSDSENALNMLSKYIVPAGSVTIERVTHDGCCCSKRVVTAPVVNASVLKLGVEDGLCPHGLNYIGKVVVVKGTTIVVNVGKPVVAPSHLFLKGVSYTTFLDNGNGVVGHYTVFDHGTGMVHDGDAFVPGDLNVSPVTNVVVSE

Compound = c1cc[n+](CCCCCCCCCC[n+]2ccccc2)cc1; target = ACHE; scale = reference: BChE IC50 over AChE IC50; endpoint = selectivity ratio; result = 12.5
Compound = C[C@@H]1NC(=O)[C@H](CCCNC(=N)N)NC(=O)[C@H](CCCNC(=N)N)NC(=O)[C@@H]2CCCN2C(=O)[C@H](CO)NC(=O)[C@@H]2CSSC[C@H](NC(=O)CN)C(=O)N[C@@H](CSSC[C@@H](C(N)=O)NC(=O)[C@H](CO)NC(=O)[C@H](CCCNC(=N)N)NC1=O)C(=O)N[C@@H](CO)C(=O)N[C@@H](Cc1c[nH]cn1)C(=O)N1CCC[C@H]1C(=O)N[C@@H](C)C(=O)N2; target = Neuronal acetylcholine receptor subunit alpha-7 (CHRNA7, Homo sapiens, UniProt P36544); assay = ion current, antagonist; system = Xenopus oocytes; setting = 10 µM, 5 min, added: acetylcholine; scale = reference: control; endpoint = remaining response; result = 16 ± 8%
Compound = CC[C@H](C)[C@@H]1NC(=O)[C@H](CCC(=O)O)NC(=O)[C@@H]2CCCN2C(=O)[C@H](Cc2c[nH]cn2)NC(=O)[C@H](CC(=O)O)NC(=O)[C@H](Cc2ccc(O)cc2)NC(=O)[C@H](CC(N)=O)NC(=O)[C@@H]2CSSC[C@@H]3NC(=O)CNC(=O)COCCOCCOCCOCCOCCOCCNC(=O)[C@H](CSSC[C@H](NC3=O)C(=O)N[C@@H](CO)C(=O)N[C@@H](CC(=O)O)C(=O)N3CCC[C@H]3C(=O)N[C@@H](CCCNC(=N)N)C(=O)N2)NC1=O; target = Neuronal acetylcholine receptor; alpha9/alpha10 (Homo sapiens, UniProt Q9GZZ6+Q9UGM1); assay = ACh-evoked current, two-electrode voltage clamp; system = Xenopus oocytes; setting = 1 µM, added: ACh 6 µM; endpoint = inhibition; result = ~50%
Compound = COC(=O)[C@@H]1C=C(OC(=O)c2ccc(O)c(Br)c2)C(=O)[C@H]2[C@@]1(C)CC[C@H]1C(=O)O[C@H](c3ccoc3)C[C@]21C; target = OPRM1 with beta-arrestin-2; assay = β-arrestin-2 vs cAMP, agonist; scale = reference: DAMGO, higher = β-arrestin-2 bias; endpoint = bias factor; result = 0.57
Compound = Oc1cc(Cn2cc(C3CC3)nn2)ccc1Oc1ccccc1Cl; target = inhA; scale = reference: fitted k6 over koff; endpoint = koff ratio; result = 3 fold
Compound = CC(C)(C)O[C@@H]1C[C@@H](C(=O)N[C@H](Cc2ccccc2)C(=O)C(=O)NCc2ccc(Cl)cn2)N(C(=O)[C@@H](NC(=O)C2CCC(F)(F)CC2)C2CCCCC2)C1; target = Transmembrane protease serine 2 (TMPRSS2, Homo sapiens, UniProt O15393, Q253D/R252D/R255K/S251D/S254D); assay = enzyme activity, inhibitor; setting = 18.52 µM; endpoint = inhibition; result = -1.03% and -4.9% and -5.67%
Compound = ON=C1c2nonc2C(=NO)c2nonc21; target = Ubiquitin carboxyl-terminal hydrolase 5 (USP5, Homo sapiens, UniProt P45974); assay = inhibitor; setting = 17 µM; endpoint = inhibition; result = 94%
Compound = O=C(C1CCN(Cc2cccc3ccccc23)CC1)N1CCc2ccccc2C1; target = Acetylcholinesterase (ache, Electrophorus electricus, UniProt O42275); assay = enzyme activity, inhibitor, Ellman; setting = 175 µM, added: acetylthiocholine iodide; endpoint = Vmax; result = 0.088 absorbance units/min
Compound = COc1ccc(-c2csc(Cn3ccnc3)c2)cc1; target = cyp121; assay = binding; endpoint = Kd; result = 16 ± 3.9 µM
Compound = COc1ccc(CN[C@@H]2CO[C@H](C(c3ccccc3)c3ccccc3)C[C@H]2O)cc1; target = Muscarinic acetylcholine receptor M1 (CHRM1, Homo sapiens, UniProt P11229); assay = radioligand binding; setting = 10 µM, added: [3H]QNB; endpoint = inhibition; result = -1.7%
Compound = O=C(Nc1c(F)cncc1F)c1nn(Cc2ccc(Cl)cc2Cl)c2ccccc12; target = Calcium release-activated calcium channel protein 1, with STIM1 (Rattus norvegicus, UniProt Q5M848); assay = Ca2+ influx, inhibitor; system = RBL-2H3; setting = 30 µM, added: thapsigargin; endpoint = inhibition; result = 46%
Compound = N#Cc1ccccc1Oc1ccc(Cn2cc(C3CCCC3)nn2)cc1O; target = inhA; setting = 20 °C, EI to EI*; endpoint = isomerization rate k5; result = 2.23 min⁻¹
Compound = CC(C)(C)c1cc[n+](COC[n+]2ccc(C(C)(C)C)cc2)cc1; target = ACHE; scale = reference: BChE IC50 over AChE IC50; endpoint = selectivity ratio; result = 6.2
Compound = CSCC[C@H](NC(=O)[C@H](Cc1ccccc1)NC(=O)CNC(=O)CNC(=O)[C@@H](N)Cc1ccc(O)cc1)C(=O)O; target = neuron-specific aminopeptidase, rat; assay = substrate; setting = MW 110 kDa; endpoint = kcat; result = 7.8 s⁻¹
Compound = O=C(O)c1ccc(-c2ccc(C(F)(F)F)cc2Cl)o1; target = mbtI (Mycobacterium tuberculosis, UniProt P9WFX1); assay = enzyme activity; setting = 100 µM, pH 7.5; endpoint = remaining activity; result = 6.1 ± 2.5%
Compound = Cc1ccc(-c2csc(NP(=O)(O)OCC3OC(n4c[n+](Cc5ccccc5)c5c(=O)[nH]c(NC(=O)c6ccccc6)nc54)C4OC(C)(C)OC34)n2)cc1 (centres unmarked); target = Eukaryotic translation initiation factor 4E, phosphorylated (EIF4E, Homo sapiens, UniProt P06730); assay = measured: EIF4E; system = MCF7; setting = concentration not given; scale = reference: untreated; endpoint = fold change; result = 0.74
Compound = CN1CC[C@]23c4c5ccc(O)c4O[C@H]2c2ncc(-c4ccc(Cl)cc4)cc2C[C@@]3(OCCCc2ccccc2)[C@H]1C5; target = OPRM1; assay = agonist; scale = reference: DAMGO; endpoint = Emax; result = 118 ± 1%
Compound = COC(=O)[C@@H]1C=C(OC(=O)c2cccc(O)c2)C(=O)[C@H]2[C@@]1(C)CC[C@H]1C(=O)O[C@H](c3ccoc3)C[C@]21C; target = OPRM1 with beta-arrestin-2; assay = β-arrestin-2 vs cAMP, agonist; scale = reference: DAMGO, higher = β-arrestin-2 bias; endpoint = bias factor; result = 1.98
Compound = N#Cc1ccccc1Oc1ccc(Cn2cc(C3CC3)nn2)cc1O; target = inhA; assay = enzyme inhibition, inhibitor, progress curve analysis; setting = 20 °C; endpoint = residence time; result = 194 ± 3 min
Compound = CC(C)[C@H](NC(=O)[C@@H]1CCCN1C(=O)[C@H](C)NC(=O)[C@H](CO)NC(=O)[C@H](C)NC(=O)[C@H](CC(N)=O)NC(=O)[C@H](CCC(=O)O)NC(=O)[C@@H](NC(=O)[C@H](CC(=O)O)NC(=O)[C@H](CCCCN)NC(=O)[C@H](C)NC(=O)[C@H](CCC(N)=O)NC(=O)[C@H](Cc1ccccc1)NC(=O)[C@H](C)NC(=O)[C@H](Cc1c[nH]c2ccccc12)NC(=O)[C@H](C)NC(=O)[C@@H](NC(=O)CN)C(C)C)C(C)C)C(=O)O; target = Peptide cyclase 1 (Gypsophila vaccaria, UniProt R4P353, S562A); assay = binding, isothermal titration calorimetry; setting = pH 8.0, 25 °C; endpoint = -TΔS; result = 3.25 kcal/mol
Compound = Cc1ccccc1Oc1ccc(Cn2cc(C3CC3)nn2)cc1O; target = inhA; setting = 20 °C, EI to EI*; endpoint = isomerization rate k5; result = 1.2 min⁻¹
Compound = Oc1cccc2c1OC1CCCC3CN(CC4CC4)CCC231 (single isomer, unassigned); target = OPRM1; assay = antagonist; setting = added: DAMGO; endpoint = Ke; result = 0.22 nM
Compound = N#Cc1ccccc1Oc1ccc(Cn2cc(C3CCCCC3)nn2)cc1O; target = inhA; setting = 20 °C, EI to EI*; endpoint = isomerization rate k5; result = 0.27 min⁻¹
Compound = O=c1c2ccccc2[nH]c(=S)n1Cc1cccnc1; target = 4'-phosphopantetheinyl transferase PptT (Mycobacterium tuberculosis, UniProt O33336); assay = enzyme activity, fluorescence polarization; setting = 10 µM; endpoint = inhibition; result = 98.5%
Compound = [N-]=[N+]=NCC=O; target = Aldehyde dehydrogenase, mitochondrial (ALDH2, Homo sapiens, UniProt P05091); assay = substrate, NAD+ to NADH conversion; endpoint = Km; result = 80 µM
Compound = C=CC(c1ccc(-c2ccc(OC)c(C)c2)cc1)n1ccnc1 (single isomer, unassigned); target = cyp121; setting = enantiomer E1; endpoint = Kd; result = 6.1 µM
Compound = CC[C@H](C)[C@@H]([C@@H](CC(=O)N1CCC[C@H]1[C@H](OC)[C@@H](C)C(=O)NCCc1ccccc1)OC)N(C)C(=O)[C@@H](NC(=O)[C@H](C(C)C)N(C)C)C(C)C [isotope labelled]; target = Tubulin alpha-1A/beta chain (Sus scrofa, UniProt P02550+P02554); assay = microtubule polymerization; setting = 3 µM, 30 min; endpoint = inhibition; result = 78.6%
Compound = CC(C)[C@H](NC(=O)[C@H](CC(=O)O)NC(=O)CNC(=O)CNC(=O)CNC(=O)[C@H](CCCCN)NC(=O)[C@H](CCCCN)NC(=O)[C@H](CCCCN)NC(=O)[C@H](Cc1ccccc1)NC(=O)c1ccc(N=Nc2ccc(N(C)C)cc2)cc1)C(=O)N[C@@H](CCCCN)C(=O)N[C@@H](CCC(=O)O)C(=O)NCCNc1cccc2c(S(=O)(=O)O)cccc12; target = Replicase polyprotein 1ab, papain-like protease 2 (rep, Porcine epidemic diarrhea virus, UniProt P0C6Y4, I1722L/N1686S/T1724W); assay = substrate; endpoint = Km; result = 39.6 ± 15.6 µM
Compound = CCN(CC)Cc1cc(N)ccc1O; target = ACHE; assay = enzyme activity, inhibitor; setting = 1 mM; endpoint = inhibition; result = 60%

Repeated from above:
Compound = CC(C)(C)O[C@@H]1C[C@@H](C(=O)N[C@H](Cc2ccccc2)C(=O)C(=O)NCc2ccc(Cl)cn2)N(C(=O)[C@@H](NC(=O)C2CCC(F)(F)CC2)C2CCCCC2)C1; target = Transmembrane protease serine 2 (TMPRSS2, Homo sapiens, UniProt O15393, Q253D/R252D/R255K/S251D/S254D); assay = enzyme activity, inhibitor; setting = 18.52 µM; endpoint = inhibition; result = -1.03% and -4.9% and -5.67%
Compound = Cc1ccccc1Oc1ccc(Cn2cc(C3CC3)nn2)cc1O; target = inhA; setting = 20 °C, EI to EI*; endpoint = isomerization rate k5; result = 1.2 min⁻¹
